{"data": "Assay results from different studies", "note": "Parts stem from different laboratories: compare values within a part only. Several values in a cell are separate wells, animals, samples, runs or records.", "sequence of UniProt P42679 (whole entry, looked up)": "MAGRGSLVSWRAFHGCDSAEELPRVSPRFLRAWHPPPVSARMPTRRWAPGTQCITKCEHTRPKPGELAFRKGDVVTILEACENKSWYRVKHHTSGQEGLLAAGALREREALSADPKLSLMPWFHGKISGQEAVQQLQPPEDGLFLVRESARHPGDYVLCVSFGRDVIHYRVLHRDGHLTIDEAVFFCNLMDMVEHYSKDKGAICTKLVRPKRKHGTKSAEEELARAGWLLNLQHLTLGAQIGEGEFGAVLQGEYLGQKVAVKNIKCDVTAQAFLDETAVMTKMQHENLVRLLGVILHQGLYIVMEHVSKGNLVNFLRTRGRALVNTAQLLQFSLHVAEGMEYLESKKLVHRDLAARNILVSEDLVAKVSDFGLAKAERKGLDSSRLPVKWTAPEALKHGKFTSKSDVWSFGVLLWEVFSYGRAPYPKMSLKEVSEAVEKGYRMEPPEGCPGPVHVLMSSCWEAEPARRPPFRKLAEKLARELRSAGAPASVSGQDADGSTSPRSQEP", "sequence of UniProt P42336 (whole entry, unmodified, looked up)": "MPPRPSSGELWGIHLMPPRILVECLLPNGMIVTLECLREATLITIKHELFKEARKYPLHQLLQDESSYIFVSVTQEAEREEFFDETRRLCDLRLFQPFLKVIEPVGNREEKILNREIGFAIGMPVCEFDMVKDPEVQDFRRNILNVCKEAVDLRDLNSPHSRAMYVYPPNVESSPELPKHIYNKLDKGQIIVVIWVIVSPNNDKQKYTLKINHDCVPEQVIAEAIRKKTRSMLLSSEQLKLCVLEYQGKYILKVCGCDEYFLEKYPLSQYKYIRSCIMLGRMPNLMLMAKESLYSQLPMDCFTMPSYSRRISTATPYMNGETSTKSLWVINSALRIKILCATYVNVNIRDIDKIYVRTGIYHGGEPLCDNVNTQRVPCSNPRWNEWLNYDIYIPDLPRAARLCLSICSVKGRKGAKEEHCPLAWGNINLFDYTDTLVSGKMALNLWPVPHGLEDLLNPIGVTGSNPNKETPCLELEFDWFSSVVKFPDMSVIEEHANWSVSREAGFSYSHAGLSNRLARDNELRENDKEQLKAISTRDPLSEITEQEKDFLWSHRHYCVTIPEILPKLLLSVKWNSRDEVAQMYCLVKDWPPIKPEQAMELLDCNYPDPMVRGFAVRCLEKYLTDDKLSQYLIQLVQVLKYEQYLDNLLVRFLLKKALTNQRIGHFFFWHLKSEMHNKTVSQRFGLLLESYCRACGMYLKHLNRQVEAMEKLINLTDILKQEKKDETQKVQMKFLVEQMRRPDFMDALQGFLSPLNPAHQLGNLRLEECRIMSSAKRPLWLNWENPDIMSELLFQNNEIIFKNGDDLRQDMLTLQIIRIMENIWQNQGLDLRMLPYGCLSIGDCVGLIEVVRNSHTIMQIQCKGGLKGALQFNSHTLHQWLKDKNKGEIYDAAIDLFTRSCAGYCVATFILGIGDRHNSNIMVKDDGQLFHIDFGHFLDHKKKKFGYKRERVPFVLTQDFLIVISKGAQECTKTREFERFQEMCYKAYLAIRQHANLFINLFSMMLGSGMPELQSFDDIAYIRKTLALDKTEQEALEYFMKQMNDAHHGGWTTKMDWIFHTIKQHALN", "sequence of UniProt P29322 (whole entry, looked up)": "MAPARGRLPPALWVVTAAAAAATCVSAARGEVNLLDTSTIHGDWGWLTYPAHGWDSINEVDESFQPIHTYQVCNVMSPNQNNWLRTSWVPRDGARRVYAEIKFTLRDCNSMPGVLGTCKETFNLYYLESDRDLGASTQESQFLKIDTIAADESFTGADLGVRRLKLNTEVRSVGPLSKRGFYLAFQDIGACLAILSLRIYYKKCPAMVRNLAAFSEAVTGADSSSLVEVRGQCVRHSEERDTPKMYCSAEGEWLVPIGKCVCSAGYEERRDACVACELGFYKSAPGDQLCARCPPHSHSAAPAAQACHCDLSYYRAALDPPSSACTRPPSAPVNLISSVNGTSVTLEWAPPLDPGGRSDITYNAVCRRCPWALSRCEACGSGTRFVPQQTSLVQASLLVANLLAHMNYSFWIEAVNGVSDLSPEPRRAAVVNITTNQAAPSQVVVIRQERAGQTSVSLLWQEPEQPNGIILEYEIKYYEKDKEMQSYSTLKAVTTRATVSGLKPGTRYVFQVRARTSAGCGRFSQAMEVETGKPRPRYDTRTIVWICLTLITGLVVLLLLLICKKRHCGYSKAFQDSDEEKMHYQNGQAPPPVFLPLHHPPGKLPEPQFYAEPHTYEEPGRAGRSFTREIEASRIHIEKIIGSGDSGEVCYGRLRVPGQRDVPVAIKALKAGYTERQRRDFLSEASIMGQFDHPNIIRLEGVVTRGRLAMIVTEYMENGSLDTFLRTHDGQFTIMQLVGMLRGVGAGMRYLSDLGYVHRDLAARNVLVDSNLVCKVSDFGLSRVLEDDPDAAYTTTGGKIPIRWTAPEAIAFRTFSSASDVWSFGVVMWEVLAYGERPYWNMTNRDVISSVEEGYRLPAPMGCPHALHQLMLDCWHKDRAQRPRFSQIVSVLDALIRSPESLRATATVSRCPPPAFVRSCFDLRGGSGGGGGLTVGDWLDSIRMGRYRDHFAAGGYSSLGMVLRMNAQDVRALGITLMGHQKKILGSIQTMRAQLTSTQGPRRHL", "sequence of UniProt Q9Y2U5 (whole entry, looked up)": "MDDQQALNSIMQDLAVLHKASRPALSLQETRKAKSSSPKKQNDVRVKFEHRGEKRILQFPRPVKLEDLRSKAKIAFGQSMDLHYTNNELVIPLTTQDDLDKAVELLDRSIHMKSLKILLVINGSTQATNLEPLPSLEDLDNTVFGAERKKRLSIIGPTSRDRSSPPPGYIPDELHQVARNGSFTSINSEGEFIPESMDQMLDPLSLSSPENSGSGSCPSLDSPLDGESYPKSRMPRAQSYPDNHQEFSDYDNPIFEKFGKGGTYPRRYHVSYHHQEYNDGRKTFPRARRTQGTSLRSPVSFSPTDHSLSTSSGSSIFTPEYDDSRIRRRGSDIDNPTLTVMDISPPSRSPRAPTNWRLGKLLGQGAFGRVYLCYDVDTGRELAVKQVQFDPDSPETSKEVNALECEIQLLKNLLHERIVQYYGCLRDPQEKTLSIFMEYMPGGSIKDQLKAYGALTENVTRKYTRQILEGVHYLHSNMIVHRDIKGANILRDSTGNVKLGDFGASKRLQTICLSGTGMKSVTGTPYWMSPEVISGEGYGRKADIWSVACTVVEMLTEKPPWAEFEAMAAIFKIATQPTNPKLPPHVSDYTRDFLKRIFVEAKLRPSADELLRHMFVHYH", "sequence of UniProt P23443 (whole entry, looked up)": "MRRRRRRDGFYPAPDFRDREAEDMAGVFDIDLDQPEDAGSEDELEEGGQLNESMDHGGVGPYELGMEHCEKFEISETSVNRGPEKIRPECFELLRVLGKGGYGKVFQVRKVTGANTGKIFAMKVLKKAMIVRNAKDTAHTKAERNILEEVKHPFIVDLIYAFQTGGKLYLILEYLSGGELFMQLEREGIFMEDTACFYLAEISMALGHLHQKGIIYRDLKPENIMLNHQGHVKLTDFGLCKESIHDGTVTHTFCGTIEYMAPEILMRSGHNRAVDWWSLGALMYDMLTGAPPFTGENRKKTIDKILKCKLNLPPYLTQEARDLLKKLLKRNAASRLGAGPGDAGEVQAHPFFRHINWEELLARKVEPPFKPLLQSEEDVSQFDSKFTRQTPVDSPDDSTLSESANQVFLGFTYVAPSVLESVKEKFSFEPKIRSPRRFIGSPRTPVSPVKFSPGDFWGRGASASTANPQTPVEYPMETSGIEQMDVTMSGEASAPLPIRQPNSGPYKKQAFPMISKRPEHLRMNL", "sequence of UniProt Q00526 (whole entry, looked up)": "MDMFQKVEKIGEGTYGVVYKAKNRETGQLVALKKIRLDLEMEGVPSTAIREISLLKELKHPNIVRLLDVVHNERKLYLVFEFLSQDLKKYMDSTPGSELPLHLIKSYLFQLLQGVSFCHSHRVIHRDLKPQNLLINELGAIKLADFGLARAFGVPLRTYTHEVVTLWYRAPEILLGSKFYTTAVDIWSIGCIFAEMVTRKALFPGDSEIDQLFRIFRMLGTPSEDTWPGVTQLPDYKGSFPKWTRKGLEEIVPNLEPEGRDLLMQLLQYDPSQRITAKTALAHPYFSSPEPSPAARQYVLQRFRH"}
{"data": "Block 1", "SMILES": "CC(=O)O/N=C1/C(c2c(O)[nH]c3cc(Br)ccc23)=Nc2ccccc21", "effect on": "enzyme activity", "action": "inhibitor", "tested at": "0.5 µM", "reference": "control"}
{"target": "Proto-oncogene tyrosine-protein kinase Src (SRC, Homo sapiens, UniProt P12931)", "remaining activity [%]": 26.2}
{"target": "Serine/threonine-protein kinase TAO3 (TAOK3, Homo sapiens, UniProt Q9H2K8)", "remaining activity [%]": 72.4}
{"target": "Serine/threonine-protein kinase Nek11 (NEK11, Homo sapiens, UniProt Q8NG66)", "remaining activity [%]": 110}
{"target": "LIM domain kinase 1 (LIMK1, Homo sapiens, UniProt P53667)", "remaining activity [%]": 69.7}
{"target": "Tyrosine-protein kinase Fyn (FYN, Homo sapiens, UniProt P06241)", "remaining activity [%]": 20.9}
{"target": "Insulin receptor (INSR, Homo sapiens, UniProt P06213)", "remaining activity [%]": 94.8}
{"target": "Megakaryocyte-associated tyrosine-protein kinase (MATK, Homo sapiens, UniProt P42679)", "remaining activity [%]": 93}
{"target": "MAP/microtubule affinity-regulating kinase 3 (MARK3, Homo sapiens, UniProt P27448)", "remaining activity [%]": 85.4}
{"target": "Vascular endothelial growth factor receptor 3 (FLT4, Homo sapiens, UniProt P35916)", "remaining activity [%]": 93.7}
{"target": "Cyclin-dependent kinase 3, with cyclin E (CDK3, Homo sapiens, UniProt Q00526)", "remaining activity [%]": 36.3}
{"target": "Serine/threonine-protein kinase NLK (NLK, Homo sapiens, UniProt Q9UBE8)", "remaining activity [%]": 106}
{"target": "Homeodomain-interacting protein kinase 1 (HIPK1, Homo sapiens, UniProt Q86Z02)", "remaining activity [%]": 83}
{"target": "Serine/threonine-protein kinase 25 (STK25, Homo sapiens, UniProt O00506)", "remaining activity [%]": 80.9}
{"target": "PAS domain-containing serine/threonine-protein kinase (PASK, Homo sapiens, UniProt Q96RG2)", "remaining activity [%]": 86.2}
{"target": "cAMP-dependent protein kinase catalytic subunit PRKX (PRKX, Homo sapiens, UniProt P51817)", "remaining activity [%]": 99.9}
{"target": "Tyrosine-protein kinase Fer (FER, Homo sapiens, UniProt P16591)", "remaining activity [%]": 86.4}
{"target": "Tyrosine-protein kinase ITK/TSK (ITK, Homo sapiens, UniProt Q08881)", "remaining activity [%]": 76.8}
{"target": "Serine/threonine-protein kinase N1 (PKN1, Homo sapiens, UniProt Q16512)", "remaining activity [%]": 96.1}
{"target": "RAC-alpha serine/threonine-protein kinase (AKT1, Homo sapiens, UniProt P31749)", "remaining activity [%]": 99.6}
{"target": "Tyrosine-protein kinase Fgr (FGR, Homo sapiens, UniProt P09769)", "remaining activity [%]": 14.8}
{"target": "ALK tyrosine kinase receptor (ALK, Homo sapiens, UniProt Q9UM73)", "remaining activity [%]": 86.7}
{"target": "Serine/threonine-protein kinase MRCK alpha (CDC42BPA, Homo sapiens, UniProt Q5VT25)", "remaining activity [%]": 85.8}
{"data": "Block 2", "SMILES": "CCS(=O)(=O)c1cc2cc(C[C@](O)(CC(C)(C)c3ccc(F)cc3C(N)=O)C(F)(F)F)[nH]c2cn1", "effect on": "cell-free assay", "technique": "competition with immobilised ligand", "tested at": "1 µM"}
{"target": "Ribosomal protein S6 kinase beta-1 (RPS6KB1, Homo sapiens, UniProt P23443)", "remaining binding [%]": 82}
{"target": "Ephrin type-A receptor 8 (EPHA8, Homo sapiens, UniProt P29322)", "remaining binding [%]": 82}
{"target": "Dual specificity mitogen-activated protein kinase kinase 5 (MAP2K5, Homo sapiens, UniProt Q13163)", "remaining binding [%]": 100}
{"target": "Calcium/calmodulin-dependent protein kinase type II subunit beta (CAMK2B, Homo sapiens, UniProt Q13554)", "remaining binding [%]": 97}
{"target": "Cyclin-dependent kinase 7 (CDK7, Homo sapiens, UniProt P50613)", "remaining binding [%]": 95}
{"target": "Ribosomal protein S6 kinase alpha-6, N-terminal kinase domain (RPS6KA6, Homo sapiens, UniProt Q9UK32)", "remaining binding [%]": 82}
{"target": "Serine/threonine-protein kinase PLK4 (PLK4, Homo sapiens, UniProt O00444)", "remaining binding [%]": 80}
{"target": "Phosphatidylinositol 4,5-bisphosphate 3-kinase catalytic subunit alpha isoform (PIK3CA, Homo sapiens, UniProt P42336, Q546K)", "remaining binding [%]": 80}
{"target": "Serine/threonine-protein kinase 26 (STK26, Homo sapiens, UniProt Q9P289)", "remaining binding [%]": 94}
{"target": "Mast/stem cell growth factor receptor Kit (KIT, Homo sapiens, UniProt P10721, V559D/V654A)", "remaining binding [%]": 79}
{"target": "Cyclin-dependent kinase-like 2 (CDKL2, Homo sapiens, UniProt Q92772)", "remaining binding [%]": 93}
{"target": "Serine/threonine-protein kinase N2 (PKN2, Homo sapiens, UniProt Q16513)", "remaining binding [%]": 100}
{"target": "Ribosomal protein S6 kinase alpha-5, N-terminal kinase domain (RPS6KA5, Homo sapiens, UniProt O75582)", "remaining binding [%]": 94}
{"target": "Inhibitor of nuclear factor kappa-B kinase subunit alpha (CHUK, Homo sapiens, UniProt O15111)", "remaining binding [%]": 100}
{"target": "Serine/threonine-protein kinase Chk2 (CHEK2, Homo sapiens, UniProt O96017)", "remaining binding [%]": 92}
{"target": "Tyrosine-protein kinase ABL1, phosphorylated (ABL1, Homo sapiens, UniProt P00519, H396P)", "remaining binding [%]": 89}
{"target": "Mitogen-activated protein kinase kinase kinase 2 (MAP3K2, Homo sapiens, UniProt Q9Y2U5)", "remaining binding [%]": 100}
{"data": "Block 3", "target": "Calcium/calmodulin-dependent protein kinase type II subunit alpha (CAMK2A, Homo sapiens, UniProt Q9UQM7)", "effect on": "enzyme activity", "action": "inhibitor", "tested at": "10 µM", "sequence of UniProt Q9UQM7 (whole entry, looked up)": "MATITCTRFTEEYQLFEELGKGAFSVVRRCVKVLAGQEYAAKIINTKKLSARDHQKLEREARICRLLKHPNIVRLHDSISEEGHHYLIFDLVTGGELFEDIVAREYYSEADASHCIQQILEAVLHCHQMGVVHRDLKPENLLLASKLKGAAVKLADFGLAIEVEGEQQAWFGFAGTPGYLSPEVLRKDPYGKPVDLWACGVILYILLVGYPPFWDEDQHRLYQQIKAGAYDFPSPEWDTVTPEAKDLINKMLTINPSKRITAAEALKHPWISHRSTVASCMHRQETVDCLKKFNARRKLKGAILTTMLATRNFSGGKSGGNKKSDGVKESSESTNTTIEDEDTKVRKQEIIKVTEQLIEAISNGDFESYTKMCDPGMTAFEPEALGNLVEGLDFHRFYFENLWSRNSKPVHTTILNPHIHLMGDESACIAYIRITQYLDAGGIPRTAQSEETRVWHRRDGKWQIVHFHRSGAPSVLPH"}
{"Structure (SMILES)": "COc1cc(C=O)cc(OC)c1O", "inhibition": "-18%"}
{"Structure (SMILES)": "CC(=O)NC[C@H]1CN(c2ccc(N3CCOCC3)c(F)c2)C(=O)O1", "inhibition": "-16%"}
{"Structure (SMILES)": "CCCCCCCCC1=C(CCCCCCCC(=O)O)C1", "inhibition": "19%"}
{"Structure (SMILES)": "CC(C)(O)[C@H](O)COc1c2ccoc2cc2oc(=O)ccc12", "inhibition": "24%"}
{"Structure (SMILES)": "Nc1ccn([C@H]2C[C@H](O)[C@@H](COP(=O)(O)OP(=O)(O)O)O2)c(=O)n1", "inhibition": "3%"}
{"Structure (SMILES)": "CC(=O)[C@H]1CC[C@H]2[C@@H]3CC=C4C[C@@H](O)CC[C@]4(C)[C@H]3CC[C@]12C", "inhibition": "6%"}
{"Structure (SMILES)": "CCCCCCCCCCC(=O)O", "inhibition": "-6%"}
{"data": "Block 4", "SMILES": "C[C@@H]1[C@H](O)[C@@H](C)/C=C/C=C/C=C/C=C/C=C/C=C/C=C/[C@H](O[C@@H]2O[C@H](C)[C@@H](O)[C@H](N)[C@@H]2O)C[C@@H]2O[C@](O)(C[C@@H](O)C[C@@H](O)[C@H](O)CC[C@@H](O)C[C@@H](O)CC(=O)O[C@H]1C)C[C@H](O)[C@H]2C(=O)O", "organism": "Leishmania donovani", "strain": "DD8", "matrix": "promastigotes"}
{"conditions": "3330 µM, 72 h", "promastigote number": "1550 and 1250"}
{"conditions": "3330 µM, 24 h", "promastigote number": "13700 and 13500"}
{"conditions": "30 µM, 72 h", "promastigote number": "9.76e+06 and 9.65e+06"}
{"conditions": "16660 µM, 24 h", "promastigote number": "1350 and 1560"}
{"conditions": "1660 µM, 72 h", "promastigote number": "54800 and 78500"}
{"conditions": "66660 µM, 24 h", "promastigote number": "1240 and 1350"}
{"note": "A few entries again (block 2):"}
{"target": "Mast/stem cell growth factor receptor Kit (KIT, Homo sapiens, UniProt P10721, V559D/V654A)", "remaining binding [%]": 79}
{"target": "Cyclin-dependent kinase-like 2 (CDKL2, Homo sapiens, UniProt Q92772)", "remaining binding [%]": 93}
{"target": "Serine/threonine-protein kinase N2 (PKN2, Homo sapiens, UniProt Q16513)", "remaining binding [%]": 100}
{"target": "Ribosomal protein S6 kinase alpha-5, N-terminal kinase domain (RPS6KA5, Homo sapiens, UniProt O75582)", "remaining binding [%]": 94}
